Experimental data of several laboratories.
A part holds a random share of what one study measured.

Series 1
Target: Histone acetyltransferase KAT6A, both winged helices, GST fusion (KAT6A, Homo sapiens, UniProt Q92794, residues 1-181)
Method: protein binding microarray
Form: double-stranded DNA, one strand shown
Sample: in vitro
Tested at: not given
Setting: 8-mer, flanks averaged, mean of 2 arrays, mostly near background
Baseline: not given
Direction: higher = stronger binding
Target sequence (chain): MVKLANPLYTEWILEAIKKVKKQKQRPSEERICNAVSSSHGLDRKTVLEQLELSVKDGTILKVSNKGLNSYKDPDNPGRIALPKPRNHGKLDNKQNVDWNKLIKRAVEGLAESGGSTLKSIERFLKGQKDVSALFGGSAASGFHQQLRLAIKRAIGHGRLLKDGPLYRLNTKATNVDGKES
Strand | E-score
ATCATCAT | -0.043
GAGGCCTC | -0.0633
GCGGGACC | 0.267
CCCGAAGG | 0.00257
GATGCCAA | -0.158
GTACGTAA | -0.052
ACGGGTGA | 0.148
TCCTCGCA | 0.0282
CTCCCATC | -0.169
CCTTGCGA | -0.0596
GATGAGTA | -0.27
GCTCAGTA | -0.0247
ACAGTGCC | -0.0684
ATATAATC | -0.0348
ACGAACGT | 0.0361
CACGACGC | 0.143
CCCCTAGA | -0.287
ACTCCCCT | -0.219
CTCGCGCA | 0.289
ACATGGGC | 0.0363
GTTCGACA | -0.0885
AATCTGCC | -0.0132
CGATTGGA | -0.0659
ACCCCGAC | 0.185
CATAAGGA | -0.116

Series 2
Target: Prothrombin, mature alpha-thrombin (F2, Homo sapiens, UniProt P00734)
Method: aptamer microarray, sandwich
Form: DNA with 2'F-ANA
Sample: in vitro
Tested at: 200 nM
Setting: whole 15-mer aptamer, many near background
With: Cy3 exosite-II aptamer, 400 nM
Direction: higher = stronger binding
Strand: GGTTGGTGTGGTTGG
Modification | mean fluorescence intensity [a.u.]
2'F-ANA at 5 6 7 12 14 | 46.3
2'F-ANA at 2 3 5 6 8 12 | 247
2'F-ANA at 1 2 3 6 8 9 10 11 12 13 15 | 92
2'F-ANA at 1 5 10 11 12 13 14 15 | 58.9
2'F-ANA at 2 3 4 5 7 8 9 12 13 | 129
2'F-ANA at 1 3 4 6 8 9 11 12 15 | 302
2'F-ANA at 4 5 8 9 12 15 | 159
2'F-ANA at 5 6 11 12 14 15 | 56.7
2'F-ANA at 7 9 12 13 14 | 229
2'F-ANA at 1 3 5 7 8 10 13 15 | 50.7
2'F-ANA at 4 5 8 13 14 | 43.1
2'F-ANA at 2 4 5 6 9 10 11 12 15 | 149
2'F-ANA at 1 2 4 5 7 8 9 10 11 15 | 49.5
2'F-ANA at 1 2 3 5 6 9 10 11 12 14 15 | 50.7
2'F-ANA at 1 5 6 7 8 9 10 11 12 14 | 50.2
2'F-ANA at 2 4 6 11 14 15 | 82.3

Series 3
Target: PABPC1L2, full length, GST fusion (mouse, UniProt A0ABA7IW68)
Method: RNAcompete
Form: RNA
Sample: in vitro
Tested at: 20 nM
Setting: 7-mer, probes averaged, single round
Baseline: mean of 7-mers
Direction: higher = stronger binding
Target sequence (chain): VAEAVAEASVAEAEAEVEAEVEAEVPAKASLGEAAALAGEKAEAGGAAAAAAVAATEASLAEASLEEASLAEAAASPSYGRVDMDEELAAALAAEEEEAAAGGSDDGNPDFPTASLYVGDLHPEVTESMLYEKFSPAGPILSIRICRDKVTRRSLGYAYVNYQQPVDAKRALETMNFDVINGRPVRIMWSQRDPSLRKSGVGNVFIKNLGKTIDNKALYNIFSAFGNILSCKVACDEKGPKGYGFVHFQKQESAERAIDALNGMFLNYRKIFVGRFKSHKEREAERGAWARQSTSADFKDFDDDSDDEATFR
Strand | 7-mer Z-score
GAUACAC | -0.121
CCUUGGA | -0.121
CCGGAAG | -0.0337
UCAGCCU | -0.382
AAAAUCU | 3.47
UCGAAUC | -0.173
AUGUGAA | 0.0533
AUUCCCA | -0.311
UCCCUGG | -0.454
UACUGAA | -0.0699
AAAGGCA | 1.05
AGUUCCU | -0.188
CUUACAC | -0.124
AUUAAUU | -0.135
UGUAGCA | -0.188
GGUUUGG | -0.28
ACAAGUG | 0.245
UCCACAA | -0.0718
GUUACAA | 0.0116
UCUGUGC | -0.374
AGGUUCG | -0.325
AAAUAGU | 1.56
AACACGG | 0.622
UAUGCGU | -0.286
CGGAUGU | -0.13

Series 4
Target: RNA binding protein fox-1 homolog 2, RRM domain, GST-SBP tag (RBFOX2, Homo sapiens, UniProt O43251-10, residues 100-194)
Method: RNA Bind-n-Seq
Form: RNA
Sample: in vitro
Tested at: 365 nM
Setting: natural RNA segment, single round, ends assumed
Baseline: no-protein control
Direction: higher = stronger binding
All sequences stand within: GGGAGUUCUACAGUCCGACGAUC … UGGAAUUCUCGGGUGCCAA
Construct (chain): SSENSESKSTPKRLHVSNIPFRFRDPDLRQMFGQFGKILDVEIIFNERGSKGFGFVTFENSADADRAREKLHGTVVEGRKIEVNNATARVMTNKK
Strand | RBNS enrichment (R)
CAGCGCCCUGGCAAAGGCUGACAACUGGCUGUCUUGGGGCCGAACAGCCCCUGCCCUGCCUCUGAGGGCCCACCAGCCUGUGCUGCAUACCCACCGCCCAGCUUCUCCCU | 0.253
AAAAAGUGGAGUCCUAUGUACCAGACUGAGUUUUUACAAAUGAUUUGCAGGCUAGACAUAACCCACUGAUGGAAAUGGUGAAGAAUGAGCUUCAUGUAGGUUUAAAAGUG | 0.587
AAUGAAAACAUCCCUGCUUCCCAGUCCCCGUGCCCGGCUACUAUCCACACUUGACAUGCGGAGCAAUCCUGCAUGUUGGUCCCCAUCUCCCCCACUAGAAACCCACUUCC | 1.37
GUGUGAUGUAUCACAAAUUGUGCUGAGGUUAUUUUAGUAUGUGUGUUUCAUUCCCGUGCUUCUGUUCUGAAGUCCUGGAAUACAGUUUUCAGUGUAAUUAAUUCAACUGC | 0.819
UGCAACUGAGAGGGUCUUCCUGGGCCCGCCUUCCCCGACAGCCCUAGUGUUACACUGGUUCUGGAGUGUCUCUGCGGUACAAAGAUGCACUUUUCUUCAUGGGGCAAAGU | 0.254
UAGUAUGGGCGAGCCACCCUCAGCUCUUUUAUUGGCCGGGGCUAUAAACCAUGGCUGGGCAUAACUAUUCCGAACUGUCCCCCCAUCAGGAUACAAGAUGCUGAGAGGGC | 0.3
UAAGAUGCUCUCGAGCGUUGAGCAGGCACAGCUCUGUCGAGGUCCCUGUCCCCCACCUGUGGUUCUGGCCUCUGAGGUUGGGGGACUACUUGUUUCCCACCCCAGGUUCC | 0.2
CUGCUUUGAUGUAAAACCACAGGUGUGUCGAGGCAGAGGCUGCAGUCCUCUGUGCGCACAGUAGGCCUUUGCUUUACCAUUCAACAGUUCUGACUUAGGCAUGUGUAGAU | 1.12
CUCACUAUGCUAGGAAUAGACUGUGUGCACCAGUCCCAGACACUUGGCAGAAGUGUAGCAGCGUUACACAUGUGUGCGAAGCAGAUCGCAGGUUCCACGCCAUCUGCAUG | 0.609
CUGGCCUCUGCCUUUCUCCCUCCUGCCUUCUGCUUGGGGAACUCAGGGCUUCACUCCCAGAGCACCCCCUUAAUCCCCACUUUUCAGGCCGUCUCAGUAUUGCCUAUGGG | 0.35
UGUCUUGAAGUCAAUGCAUGCUCGUGCUGUUCGACAGUAACCUACUCUGCCUUCUCCACCUCCGAGGCUGUGCAUUCAUCCAAUUAGUGUCAUGAAUGUUUCCCCUUUAU | 5.71
UUUGCCAAGAAGGAAGCUUUGGUUCCUUUUUCCCUAGGAAGAAGACAUUGUCUUGGAGAACACUUGGCUCGGAUGGAAAUGUUCUUGUUUUUUACAGCAUUGCUUCAGAG | 0.341

Series 5
Target: Ras GTPase-activating protein-binding protein 1, C-terminal RGG region (G3BP1, Homo sapiens, UniProt Q13283)
Sequence of UniProt Q13283 (whole entry, looked up): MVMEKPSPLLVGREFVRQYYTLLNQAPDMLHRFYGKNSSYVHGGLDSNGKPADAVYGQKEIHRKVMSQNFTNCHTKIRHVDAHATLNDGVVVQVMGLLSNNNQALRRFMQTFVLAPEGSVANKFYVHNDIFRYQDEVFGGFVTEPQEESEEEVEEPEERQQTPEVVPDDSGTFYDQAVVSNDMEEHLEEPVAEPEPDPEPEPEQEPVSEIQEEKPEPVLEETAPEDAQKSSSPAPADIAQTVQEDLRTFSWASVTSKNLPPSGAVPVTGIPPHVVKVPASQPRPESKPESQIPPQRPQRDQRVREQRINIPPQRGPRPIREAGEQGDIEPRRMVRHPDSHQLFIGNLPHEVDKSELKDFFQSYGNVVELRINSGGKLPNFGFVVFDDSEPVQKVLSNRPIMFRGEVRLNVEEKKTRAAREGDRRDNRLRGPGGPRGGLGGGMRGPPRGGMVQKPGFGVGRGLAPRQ
Method: RNA Bind-n-Seq
Form: RNA
Sample: in vitro
Tested at: 1 µM
Setting: whole 134-nt RNA, ends assumed
With: 150 mM KCl
Baseline: input library
Direction: higher = stronger binding
All sequences stand within: GGGAGUUCUACAGUCCGACGAUC … UGGAAUUCUCGGGUGUCAAGG
Strand | log2 enrichment
CACAGACAACACGCACCCACACAGACACAGAGGGAAGGGGUUGGGAUGGGGACAGGGUGCACAGCAGGGCGGAAAAGGACCCCAGCCCCU | -0.265
CCUCAAGUCCUGUGCUACACAUCGUAUGUACCGAAUCGGGCGGCGGGCGGGGAAAGUAUUAUGUUACGCCGUUCGGAUCUGCACUUCCAG | 0.305
CUGUGCUACACAUCGUAUGUACCGAAUCGGGGAAAAAGGGGUUUUUGGGGUUUUUUUGGGGAAAGUAUUAUGUUACGCCGUUCGGAUCUG | 0.352
ACCAUGCAGGUGGGCAUCUUUGGGAAGUGGGGCAAGGGGGGGAUAGGGAGGAAAGUAACACUUUGGGAACAGGUGGUCCCAGGUCGUUUC | -1.12
UGGGAGGUGGAUUUUGUUUAUUUUUUUAGCUCAUUUCCAGGGGUGGGAAUUUUUUUUUAAUAUGUUUCAUGAAUAAAGUUGUUUUUGAAA | 2.46
GUCCUGUGCUACACAUCGUAUGUACCGAAUCGGGAAAAAAAGGGAGGGAAAAAAAGGGAAAGUAUUAUGUUACGCCGUUCGGAUCUGCAC | -0.315
AGUCCUGUGCUACACAUCGUAUGUACCGAAUCGGGGUUUUGGGGUUUUGGGUUUUGGGAAAGUAUUAUGUUACGCCGUUCGGAUCUGCAC | 0.815
UGGCCCUGGUGGCAUGCGGGGAGGAAGAGGUGGCCUCAUGGAUCGUGUUGGUCCCGGUGGAAUGUUCAGAGGUGGCCGUGGUGGAGACAG | 2.07
UCAAGUCCUGUGCUACACAUCGUAUGUACCGAAUCGGGGAAGGGAAGGGAAGGGGAAAGUAUUAUGUUACGCCGUUCGGAUCUGCACUUC | 2.32
UGGCCCUGGUGGCAUGCGGGGAGGAAGAGGUGGCCUCAUGGAUCGUGGUGAUCCCGGUGGAAUGUUCAGAGGUGGCCGUGGUGGAGACAG | 1.48
UCCUCAAGUCCUGUGCUACACAUCGUAUGUACCGAAUCGGCGGCGGGGCGGAAAGUAUUAUGUUACGCCGUUCGGAUCUGCACUUCCAGC | -0.816
AAGUCCUGUGCUACACAUCGUAUGUACCGAAUCGGGGAAAAGGGAAAAGGGAAAAGGAAAGUAUUAUGUUACGCCGUUCGGAUCUGCACU | -1.37
GUCCUGUGCUACACAUCGUAUGUACCGAAUCGGGAAAAAGGGUUUUUGGGAAAAAGGGAAAGUAUUAUGUUACGCCGUUCGGAUCUGCAC | -0.702
UCAAGUCCUGUGCUACACAUCGUAUGUACCGAAUCGGGUGGGUGGGUUUUUGGGAAAGUAUUAUGUUACGCCGUUCGGAUCUGCACUUCC | 1.4

Excerpt of the above (series 1):
Strand | E-score
CCCCTAGA | -0.287
TCCTCGCA | 0.0282
GATGCCAA | -0.158
CTCCCATC | -0.169
CCCGAAGG | 0.00257
ATATAATC | -0.0348
ACGGGTGA | 0.148
ACGAACGT | 0.0361
ACAGTGCC | -0.0684
GTTCGACA | -0.0885
AATCTGCC | -0.0132
